Measured values from different studies.
Lines come from different studies, so protocols differ. Numbers after ± are the reported error.

C[C@@H]1CN(CC(=O)N2CC(C)(C)c3nc(CO)c(Cc4ccc(F)cc4)cc32)[C@@H](CN2CCOC[C@H]2C)CN1
oral bioavailability (male cynomolgus monkey; oral, 15 mg/kg): 19 ± 5%

NC1(C(=O)N[C@@H](CCO)c2ccc(Cl)cc2)CCN(c2nc[nH]c3nccc2-3)CC1
incidence of Nausea (metastatic CRPC patients; 480 mg b.i.d., grade 3 to 4, treatment-related, added: enzalutamide 160 mg daily): 0%

COc1ccc2c(c1)CN(C(=O)CCN1CCC(Cc3ccccc3)CC1)CC[S@@+]2[O-]
diastolic blood pressure (telemetry; conscious dog; intravenous, 8 mg/kg, 24 h): 81 ± 15 mmHg

Clc1ccccc1C(c1ccccc1)(c1ccccc1)n1ccnc1
amorphous solubility (50 mM phosphate buffer, 100 µg/mL HPMCAS; pH 6.5, 37 °C, average of three methods): 5.1 µg/mL

Cc1c2oc3c(C)ccc(C(=O)N[C@@H]4C(=O)N[C@H](C(C)C)C(=O)N5CCC[C@H]5C(=O)N(C)CC(=O)N(C)[C@@H](C(C)C)C(=O)O[C@@H]4C)c3nc-2c(C(=O)N[C@@H]2C(=O)N[C@H](C(C)C)C(=O)N3CCC[C@H]3C(=O)N(C)CC(=O)N(C)[C@@H](C(C)C)C(=O)O[C@@H]2C)c(N)c1=O
V2 (population PK model; human): 11 L/70 kg

C[C@@H]1CN(Cc2ncccn2)C[C@H]1c1nc2c(cnn2C2CCOCC2)c(=O)[nH]1
volume of distribution (mouse, plasma; intravenous, 0.3 mg/kg): 1.6 L/kg

Cl.[2H]C([2H])([2H])CC(=O)c1cnc(NC(=O)C2CC2)cc1Nc1cccc(-c2ncn(C([2H])([2H])[2H])n2)c1OC
half-life (human, fasted, multiple dose; oral, 20 mg once daily, tablet, day 14, geometric mean): 551 min

CC(=O)N[C@H]1[C@H]([C@H](O)[C@H](O)CO)OC(C(=O)O)=C[C@@H]1N=C(N)N
recovery (HPLC; HBSS; 5 µg/mL, time not given, three freeze-thaw cycles): 97.4%

CNc1ccc(-c2nc3ccc(O)cc3s2)cc1 [carbon-11 labelled]
uptake (ex vivo biodistribution; APP/PS1 Alzheimer mice, adipose; intravenous, 30 min): 0.507 ± 0.279 SUV

CC[C@H](C)[C@H](NC(=O)[C@H](Cc1ccccc1)NC(=O)[C@H](CCC(=O)O)NC(=O)[C@H](CCCCNC(=O)COCCOCCNC(=O)COCCOCCNC(=O)CC[C@H](NC(=O)CCCCCCCCCCCCCCCCC(=O)O)C(=O)O)NC(=O)[C@H](C)NC(=O)[C@H](C)NC(=O)[C@H](CCC(N)=O)NC(=O)CNC(=O)[C@H](CCC(=O)O)NC(=O)[C@H](CC(C)C)NC(=O)[C@H](Cc1ccc(O)cc1)NC(=O)[C@H](CO)NC(=O)[C@H](CO)NC(=O)[C@@H](NC(=O)[C@H](CC(=O)O)NC(=O)[C@H](CO)NC(=O)[C@@H](NC(=O)[C@H](Cc1ccccc1)NC(=O)[C@@H](NC(=O)CNC(=O)[C@H](CCC(=O)O)NC(=O)C(C)(C)NC(=O)[C@@H](N)Cc1cnc[nH]1)[C@@H](C)O)[C@@H](C)O)C(C)C)C(=O)N[C@@H](C)C(=O)N[C@@H](Cc1c[nH]c2ccccc12)C(=O)N[C@@H](CC(C)C)C(=O)N[C@H](C(=O)N[C@@H](CCCNC(=N)N)C(=O)NCC(=O)N[C@@H](CCCNC(=N)N)C(=O)NCC(=O)O)C(C)C
heart rate change (hypoglycaemic clamp; type 2 diabetes patients; dose not given, from glucose nadir to recovery): -5.4 beats/min

O=C(O)c1ccc(OS(=O)(=O)O)c(O)c1
CSF concentration (human CSF; concentration not given, mean): not detected

NCCONC(=O)[C@@H]1CC[C@@H]2CN1C(=O)N2OS(=O)(=O)O
number of serious TRAE events (healthy Chinese male subjects; intravenous, 2 g): 0

CC(=O)N(C)[C@H]1CCN(C(=O)c2cnc3c(c2)C[C@](C)(c2ccc(F)cc2)N3)C1
adverse event duration (measured: Lightheadedness; human; oral, 30 mg once daily): 13 days

N#Cc1ccc2c(c1)[C@H]1CCCN(C(=O)c3ccc4[nH]cnc4c3)[C@H]1C2
androstenedione level (human, male; 10 mg, end of trial): 5.9 nmol/L

COc1ccnc(C(N)=O)c1O
KOC (FOCUS PEARL groundwater modelling; soil; geometric mean input): 669 mL/g

Nc1ncnc2c1ncn2[C@H]1C[C@@H]2OP(=O)(O)OC[C@H]3O[C@@H](n4cnc5c(N)ncnc54)C[C@@H]3OP(=O)(O)OC[C@H]2O1
ALT (non-tumor-bearing mice, serum; intravenous, 1 mg/kg, toxicity study): 66 ± 5.03 U/L

CC(C)C[C@H](NC(=O)CNC(=O)c1cc(Cl)ccc1Cl)B(O)O
adverse events all grades (newly diagnosed multiple myeloma patients; oral, dose not given, Fatigue, maintenance): 11%

CN(C(=O)n1cnc(-c2cccnc2)c1)C1CCCCC1
tissue concentration (Wistar rat, cerebral cortex; oral, 10 mg/kg, 24 h, single dose): 8.8 ± 0.1 ng/g

NC(=O)c1cnc2[nH]ccc2c1N[C@@H]1[C@@H]2CC3C[C@H]1C[C@@](O)(C3)C2
peripheral volume (healthy human volunteers, plasma; oral, dose not given, population PK model estimate): 124 L

CCO
pharmacodynamic-related TEAEs (human; concentration not given): 50%

CCCCc1oc2ccccc2c1C(=O)c1cc(I)c(OCCN(CC)CC)c(I)c1
heart rate (male Hartley guinea pigs, anaesthetized; intravenous, 10 mg/kg group, baseline before infusion): 245 ± 0.4 beats/min

CCOc1c([C@H](C)n2nc(C)c3c(N)ncnc32)cc(Cl)c(F)c1[C@@H]1CNC(=O)C1
observations ΔQTcF >30 ≤60 ms (ECG; previously treated B-cell malignancy patients; oral, 20 mg once daily, baseline QTcF ≤450 ms): 3%

Cc1c(Cl)c(C)[n+]([O-])c(Cl)c1-c1noc(-c2cc(O)c(O)c([N+](=O)[O-])c2)n1
TEAEs causing discontinuation (healthy Caucasian subjects; oral, 50 mg, 10 days): 13.3%

C[C@@H](N)C1CCN(S(=O)(=O)c2cccc3cnccc23)CC1
treatment-related TEAE incidence (healthy volunteers; dose not given, fasted,, all doses): 33.3%

COc1ccc2c(=O)n(C)c(-c3ccccc3)nc2c1
tissue/plasma ratio (Sprague-Dawley rat, male, skeletal muscle/plasma; oral, 30 mg/kg, 0.5 h; relative to: skeletal muscle over plasma): 0.29

CCN1CCN(Cc2ccc(Nc3ncc(F)c(-c4cc(F)c5nc(C)n(C(C)C)c5c4)n3)nc2)CC1
peripheral volume of distribution (population PK model; human, plasma; oral, dose not given): 174 L

CCCCNCc1ccc(CNC(=O)c2csc3nc[nH]c(=O)c23)cc1
EC50 (haemolysis; human red blood cells; 1 h, 37 °C): > 100 µM

O=C(O)CCC(=O)O.[2H]C([2H])([2H])Oc1cc(C)c2[nH]ccc2c1CN1CC[C@@H](C2CC2)C[C@H]1c1ccc(C(=O)O)cc1
subjects with elevated bilirubin TEAE (multiple ascending dose; healthy Chinese subjects; 200 mg once daily): 0%

CC(C)(C)c1ccc(C(O)CCCN2CCC(C(O)(c3ccccc3)c3ccccc3)CC2)cc1 (stereo not drawn)
heart rate (male Hartley guinea pigs, anaesthetized; intravenous, 3 mg/kg over 10 min, after infusion): 188 ± 0.6 beats/min

CNC(=O)c1ccc(-c2cnc3ncc(Cc4ccc5ncccc5c4)n3n2)cc1F
AST increased incidence (cancer patients; oral, dose not given, all grades dose escalation): 24%

O=C(Nc1cnccc1Cl)N1CCN(Cc2ccc3c(c2)OC(F)(F)O3)CC1
volunteers with adverse event (measured: Headache; healthy elderly humans; 100 mg once daily, 10 days): 33.3%

Cc1cn(-c2cc(NC(=O)c3ccc(C)c(Nc4nccc(-c5cccnc5)n4)c3)cc(C(F)(F)F)c2)cn1
peripheral volume of distribution (V2) (population PK model, bootstrap; human, both sexes, plasma; oral, dose not given): 224 L

N#Cc1ccc2c(c1)[C@H]1CCCN(C(=O)c3ccc4[nH]cnc4c3)[C@H]1C2
AUC(tau) steady state (human, plasma; oral, 20 mg once daily, steady state): 21.2 µM·h

N#Cc1ccc(-c2cnc3ccc(-c4ccc(C(=O)N5CCOCC5)cc4)cn23)cc1
placebo-corrected change from baseline (measured: QTcF interval; healthy volunteers; oral, 10 mg, fed, time-averaged): 1.8 ms

CN(CCC(=O)O)C(=O)c1ccc2c(c1)CC[C@@H]1[C@@H]2CC[C@]2(C)C(c3cncc(F)c3)=CC[C@@H]12
indirect bilirubin change (premenopausal women with endometriosis pain, serum; 60 mg twice daily, end of treatment, completers, median; relative to: baseline): 0.24 mg/dL

O=C(O)CCc1ccc(O)c(O[C@@H]2O[C@H](C(=O)O)[C@@H](O)[C@H](O)[C@H]2O)c1
CSF concentration (human CSF; concentration not given, mean): not detected

CC(C)NCC(O)c1ccc(NS(C)(=O)=O)cc1 (racemic)
heart rate (male Hartley guinea pigs, anaesthetized; intravenous, 10 mg/kg group, baseline before infusion): 233 ± 0.3 beats/min

O=C1c2ccncc2C(=O)c2c1[nH]c1ccccc21
tissue concentration (Sprague-Dawley rat, male, right ventricle; oral, 5 mg/kg, 24 h): 0.067 ± 0.036 nmol/mg

C=CC(=O)N1CCC(c2ccc(C(N)=O)c(-c3ccc(Oc4ccccc4)cc3)n2)CC1
treatment-related AE rate (relapsed/refractory mantle cell lymphoma patients; oral, 150 mg once daily, part, CTCAE v4.03): 50%

CO[C@@H]1[C@H](OC(=O)N2CC(CCN3CCOCC3)C2)CC[C@]2(CO2)[C@H]1[C@@]1(C)O[C@@H]1CC=C(C)C
systolic blood pressure change (human; dose not given, day 28, multiple ascending dose; relative to: baseline): -0.3 ± 10.7 mmHg

C=CC(=O)N(C)CCOc1c(N)ncnc1-c1cc(F)cc(NC(=O)c2ccc(C3CC3)cc2F)c1C
AUC (human, plasma; oral, 25 mg once daily, day 12): 117 ng·h/mL

CC(C)(C)c1ccc(O)c(CN(Cc2cc(C(C)(C)C)ccc2O)C2CCC(NC(N)=O)CC2)c1 (stereo not drawn)
terminal elimination rate constant (C57BL/6 mice, male, brain; intraperitoneal, 5 mg/kg, single dose): 2.69e-05 s⁻¹

C[C@@H](O)CCOC(=O)C[C@@H](C)O
systolic blood pressure (human; oral drink, dose not given, 60 min post dose, mean): 109 mmHg

C[C@H](CS)C(=O)N1CCC[C@H]1C(=O)O
heart rate (male Hartley guinea pigs, anaesthetized; intravenous, 10 mg/kg group, baseline before infusion): 237 ± 0.9 beats/min

O=C(O)/C=C/c1ccc(O[C@@H]2O[C@H](C(=O)O)[C@@H](O)[C@H](O)[C@H]2O)c(O)c1
CSF concentration (human CSF; concentration not given, mean): not detected

Cc1cc(NC2CCN(C(=O)OC3CCN(C(=O)/C=C/CN(C)C)C3)CC2)n2ncc(C(C)C)c2n1 (stereo not drawn)
patients with TEAE (CTCAE v4.0, measured: Hypomagnesemia; patients with advanced solid tumours; oral, dose not given, all schedules, grade 3 or higher): 0%

CCCCC[C@H](O)CC[C@@H]1[C@H]2Cc3cccc(OCC(=O)O)c3C[C@H]2C[C@H]1O
geometric mean Cmax (LC-MS/MS; female Japanese PAH patients, plasma; inhaled, 54 µg): 1.03 ng/mL

CCN1/C(=C/C(C)=O)Sc2ccc(F)cc21
diastolic blood pressure (cynomolgus monkey; oral, 10 mg/kg, 0.5 h post-dose): 75 ± 2 mmHg

C[C@@H](NC(=O)N1C(=O)[C@H](Cc2ccnc(N)c2)[C@H]1C(=O)O)C1CCCCC1
time to steady state (UPLC-MS/MS; healthy adult Chinese volunteers, plasma; continuous intravenous infusion, 0.3 mg/kg/h, day 1 of 5-day infusion, median): 1.5 h

COc1ccc(CCC(=O)O)cc1O[C@@H]1O[C@H](C(=O)O)[C@@H](O)[C@H](O)[C@H]1O
CSF concentration (human CSF; concentration not given, mean): not detected

COc1cc(Nc2ncc3c(n2)-c2ccc(Cl)cc2C(c2c(F)cccc2OC)=NC3)ccc1C(=O)O
patients with adverse event (measured: Hypokalemia, all grades; cancer patients, phase 1/2; oral, dose not given, added: pembrolizumab): 13%

CNCc1ccc(-c2[nH]c3cc(F)cc4c3c2CCNC4=O)cc1
abdominal pain incidence (patients; oral, 840 mg twice daily, all grades): 33.3%

CCCCCCOC(=O)NC(=N)c1ccc(NCc2nc3cc(C(=O)N(CCC(=O)OCC)c4ccccn4)ccc3n2C)cc1
participants with TEAE hot flush (human; oral, 75 mg, compound alone): 4.2%

Cc1ccc([C@@H]2O[C@H](CO)[C@@H](O)[C@H](O)[C@H]2O)cc1Cc1ccc(-c2ccc(F)cc2)s1
urinary magnesium excretion change (Japanese type 2 diabetes patients; 200 mg, day 1, 24 h urine collection; relative to: baseline): -30.2 mg

CCN1CCN(Cc2ccc(Nc3ncc(F)c(-c4cc(F)c5nc6n(c5c4)[C@H](C)CCC6)n3)nc2)CC1
AUC(0-tau) (human, plasma; 300 mg multiple dosing, mean): 7390 ng·h/mL

O=C(c1ccccc1)c1ccc2n1CCC2C(=O)O (stereo not drawn)
MRT(0-inf) (New Zealand White rabbit, male, plasma; oral, 10 mg/kg drug equivalent): 7.72 ± 0.12 h

Cn1cnc2c(F)c(Nc3ccc(Br)cc3Cl)c(C(=O)NOCCO)cc21
peripheral volume of distribution (human, plasma; oral, dose not given, zero-order absorption): 52.5 L

A few entries again:
CO[C@@H]1[C@H](OC(=O)N2CC(CCN3CCOCC3)C2)CC[C@]2(CO2)[C@H]1[C@@]1(C)O[C@@H]1CC=C(C)C
systolic blood pressure change (human; dose not given, day 28, multiple ascending dose; relative to: baseline): -0.3 ± 10.7 mmHg

C=CC(=O)N(C)CCOc1c(N)ncnc1-c1cc(F)cc(NC(=O)c2ccc(C3CC3)cc2F)c1C
AUC (human, plasma; oral, 25 mg once daily, day 12): 117 ng·h/mL

CC(C)(C)c1ccc(O)c(CN(Cc2cc(C(C)(C)C)ccc2O)C2CCC(NC(N)=O)CC2)c1 (stereo not drawn)
terminal elimination rate constant (C57BL/6 mice, male, brain; intraperitoneal, 5 mg/kg, single dose): 2.69e-05 s⁻¹

C[C@@H](O)CCOC(=O)C[C@@H](C)O
systolic blood pressure (human; oral drink, dose not given, 60 min post dose, mean): 109 mmHg

C[C@H](CS)C(=O)N1CCC[C@H]1C(=O)O
heart rate (male Hartley guinea pigs, anaesthetized; intravenous, 10 mg/kg group, baseline before infusion): 237 ± 0.9 beats/min

O=C(O)/C=C/c1ccc(O[C@@H]2O[C@H](C(=O)O)[C@@H](O)[C@H](O)[C@H]2O)c(O)c1
CSF concentration (human CSF; concentration not given, mean): not detected

Cc1cc(NC2CCN(C(=O)OC3CCN(C(=O)/C=C/CN(C)C)C3)CC2)n2ncc(C(C)C)c2n1 (stereo not drawn)
patients with TEAE (CTCAE v4.0, measured: Hypomagnesemia; patients with advanced solid tumours; oral, dose not given, all schedules, grade 3 or higher): 0%

CCCCC[C@H](O)CC[C@@H]1[C@H]2Cc3cccc(OCC(=O)O)c3C[C@H]2C[C@H]1O
geometric mean Cmax (LC-MS/MS; female Japanese PAH patients, plasma; inhaled, 54 µg): 1.03 ng/mL

CCN1/C(=C/C(C)=O)Sc2ccc(F)cc21
diastolic blood pressure (cynomolgus monkey; oral, 10 mg/kg, 0.5 h post-dose): 75 ± 2 mmHg
